Published values from different studies.
Every numbered part comes from another study and shows a few of its results, in no order.
Chain of UniProt Q5S007 (whole entry, unmodified, looked up): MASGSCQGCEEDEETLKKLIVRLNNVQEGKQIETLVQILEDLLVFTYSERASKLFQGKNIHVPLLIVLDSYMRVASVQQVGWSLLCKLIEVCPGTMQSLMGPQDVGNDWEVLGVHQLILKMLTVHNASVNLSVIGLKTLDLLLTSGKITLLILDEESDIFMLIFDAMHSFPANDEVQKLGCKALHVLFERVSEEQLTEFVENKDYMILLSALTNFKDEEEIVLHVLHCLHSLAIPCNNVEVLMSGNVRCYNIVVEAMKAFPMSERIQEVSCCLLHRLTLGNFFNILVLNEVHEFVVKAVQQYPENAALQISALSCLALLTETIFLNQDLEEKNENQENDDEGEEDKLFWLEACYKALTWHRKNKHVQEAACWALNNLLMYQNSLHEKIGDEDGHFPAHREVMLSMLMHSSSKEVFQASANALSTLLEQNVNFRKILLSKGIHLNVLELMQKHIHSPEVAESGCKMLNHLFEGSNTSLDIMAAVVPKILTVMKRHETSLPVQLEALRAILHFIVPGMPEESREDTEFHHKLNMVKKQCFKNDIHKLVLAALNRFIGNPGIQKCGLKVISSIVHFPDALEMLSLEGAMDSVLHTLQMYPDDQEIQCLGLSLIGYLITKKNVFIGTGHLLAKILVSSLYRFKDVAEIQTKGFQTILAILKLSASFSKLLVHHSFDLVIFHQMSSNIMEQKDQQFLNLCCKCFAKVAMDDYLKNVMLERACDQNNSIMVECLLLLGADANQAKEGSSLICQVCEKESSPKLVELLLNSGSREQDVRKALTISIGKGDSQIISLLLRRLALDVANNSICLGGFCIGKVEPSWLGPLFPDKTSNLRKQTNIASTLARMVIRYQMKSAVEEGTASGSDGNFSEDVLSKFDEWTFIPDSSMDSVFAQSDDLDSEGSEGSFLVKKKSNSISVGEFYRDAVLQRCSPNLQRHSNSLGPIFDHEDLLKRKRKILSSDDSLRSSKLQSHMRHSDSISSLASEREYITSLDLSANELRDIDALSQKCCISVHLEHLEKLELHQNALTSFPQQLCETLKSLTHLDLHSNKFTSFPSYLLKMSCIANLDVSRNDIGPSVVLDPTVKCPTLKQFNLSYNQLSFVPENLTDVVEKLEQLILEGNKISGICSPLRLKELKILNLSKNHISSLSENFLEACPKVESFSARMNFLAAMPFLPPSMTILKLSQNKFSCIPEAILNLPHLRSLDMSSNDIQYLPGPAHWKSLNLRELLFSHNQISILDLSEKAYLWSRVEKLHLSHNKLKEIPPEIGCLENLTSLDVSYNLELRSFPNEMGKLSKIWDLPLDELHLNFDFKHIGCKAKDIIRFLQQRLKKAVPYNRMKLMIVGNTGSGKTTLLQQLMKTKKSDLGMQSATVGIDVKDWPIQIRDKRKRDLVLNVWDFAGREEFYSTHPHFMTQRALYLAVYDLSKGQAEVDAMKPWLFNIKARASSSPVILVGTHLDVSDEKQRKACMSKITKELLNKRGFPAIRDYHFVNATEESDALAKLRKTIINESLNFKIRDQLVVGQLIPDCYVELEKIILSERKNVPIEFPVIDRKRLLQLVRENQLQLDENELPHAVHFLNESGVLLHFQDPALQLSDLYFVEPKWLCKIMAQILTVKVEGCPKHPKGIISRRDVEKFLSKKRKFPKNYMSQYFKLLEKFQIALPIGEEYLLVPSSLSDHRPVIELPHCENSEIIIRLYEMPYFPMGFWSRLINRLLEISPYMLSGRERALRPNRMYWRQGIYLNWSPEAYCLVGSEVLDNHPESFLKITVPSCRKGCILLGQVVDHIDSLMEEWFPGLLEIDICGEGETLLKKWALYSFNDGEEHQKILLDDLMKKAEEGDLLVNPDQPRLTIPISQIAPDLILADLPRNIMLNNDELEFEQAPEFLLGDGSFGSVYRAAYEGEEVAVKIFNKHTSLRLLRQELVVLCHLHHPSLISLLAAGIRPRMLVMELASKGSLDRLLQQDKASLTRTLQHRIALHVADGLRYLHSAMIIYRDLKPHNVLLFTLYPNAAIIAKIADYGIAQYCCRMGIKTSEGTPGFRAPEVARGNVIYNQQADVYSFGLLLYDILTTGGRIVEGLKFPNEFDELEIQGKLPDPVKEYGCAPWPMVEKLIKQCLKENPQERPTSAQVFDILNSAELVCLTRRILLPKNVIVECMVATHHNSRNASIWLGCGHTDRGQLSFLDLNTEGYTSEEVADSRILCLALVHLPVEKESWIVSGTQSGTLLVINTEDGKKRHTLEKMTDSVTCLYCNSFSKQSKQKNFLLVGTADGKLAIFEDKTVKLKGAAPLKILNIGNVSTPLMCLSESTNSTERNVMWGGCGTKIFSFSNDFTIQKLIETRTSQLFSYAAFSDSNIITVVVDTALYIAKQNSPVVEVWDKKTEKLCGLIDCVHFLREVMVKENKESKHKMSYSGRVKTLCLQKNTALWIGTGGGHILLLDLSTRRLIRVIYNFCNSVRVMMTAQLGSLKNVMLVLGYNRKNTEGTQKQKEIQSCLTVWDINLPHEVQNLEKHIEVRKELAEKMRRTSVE
Chain of UniProt Q15569 (whole entry, looked up): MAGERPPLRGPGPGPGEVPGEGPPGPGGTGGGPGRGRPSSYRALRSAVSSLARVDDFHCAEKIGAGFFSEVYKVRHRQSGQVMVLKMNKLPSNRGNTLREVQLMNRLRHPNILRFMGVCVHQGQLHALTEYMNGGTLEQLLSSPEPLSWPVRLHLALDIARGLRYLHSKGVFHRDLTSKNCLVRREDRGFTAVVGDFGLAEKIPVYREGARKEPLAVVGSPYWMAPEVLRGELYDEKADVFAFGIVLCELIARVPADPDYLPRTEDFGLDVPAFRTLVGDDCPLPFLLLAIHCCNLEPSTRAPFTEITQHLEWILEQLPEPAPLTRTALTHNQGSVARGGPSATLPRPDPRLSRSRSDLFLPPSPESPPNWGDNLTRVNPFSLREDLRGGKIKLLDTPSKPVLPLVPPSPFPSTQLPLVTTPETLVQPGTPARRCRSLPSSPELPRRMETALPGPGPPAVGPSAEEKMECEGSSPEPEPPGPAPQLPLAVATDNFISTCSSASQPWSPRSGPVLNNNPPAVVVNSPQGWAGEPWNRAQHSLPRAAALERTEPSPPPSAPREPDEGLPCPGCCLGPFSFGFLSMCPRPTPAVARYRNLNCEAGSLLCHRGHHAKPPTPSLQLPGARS
Chain of UniProt P41743 (whole entry, looked up): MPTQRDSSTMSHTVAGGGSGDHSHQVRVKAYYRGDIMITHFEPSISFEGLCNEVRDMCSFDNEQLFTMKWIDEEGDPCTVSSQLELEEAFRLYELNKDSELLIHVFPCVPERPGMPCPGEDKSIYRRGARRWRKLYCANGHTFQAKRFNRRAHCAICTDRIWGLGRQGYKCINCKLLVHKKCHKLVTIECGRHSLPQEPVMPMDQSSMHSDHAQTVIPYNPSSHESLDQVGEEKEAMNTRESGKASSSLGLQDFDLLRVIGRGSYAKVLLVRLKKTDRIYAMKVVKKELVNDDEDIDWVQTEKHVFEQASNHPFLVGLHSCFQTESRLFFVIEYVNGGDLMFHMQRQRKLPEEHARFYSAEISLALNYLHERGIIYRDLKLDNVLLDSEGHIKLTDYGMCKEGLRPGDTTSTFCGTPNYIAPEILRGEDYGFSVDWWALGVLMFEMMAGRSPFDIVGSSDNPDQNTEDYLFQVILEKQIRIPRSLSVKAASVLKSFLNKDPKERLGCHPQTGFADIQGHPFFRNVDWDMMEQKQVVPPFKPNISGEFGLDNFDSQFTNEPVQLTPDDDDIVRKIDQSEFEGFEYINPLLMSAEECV
Chain of UniProt P48729 (whole entry, looked up): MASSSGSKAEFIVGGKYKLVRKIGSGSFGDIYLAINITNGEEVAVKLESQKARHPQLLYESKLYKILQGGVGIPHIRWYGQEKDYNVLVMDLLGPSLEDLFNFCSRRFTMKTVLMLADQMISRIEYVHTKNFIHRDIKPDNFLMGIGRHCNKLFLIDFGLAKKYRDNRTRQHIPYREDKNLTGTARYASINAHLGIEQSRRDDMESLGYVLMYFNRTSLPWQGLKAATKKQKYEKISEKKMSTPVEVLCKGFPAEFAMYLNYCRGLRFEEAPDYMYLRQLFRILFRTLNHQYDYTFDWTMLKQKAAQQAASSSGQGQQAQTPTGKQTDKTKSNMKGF

Set 1 — mode: degrader; technique: HiBiT; cell line: HEK293; concentration: 370.37 nM; endpoint: protein remaining
Target: CRBN/Zinc finger protein Helios (Homo sapiens, UniProt Q96SW2+Q9UKS7)
Chain of UniProt Q96SW2 (whole entry, looked up): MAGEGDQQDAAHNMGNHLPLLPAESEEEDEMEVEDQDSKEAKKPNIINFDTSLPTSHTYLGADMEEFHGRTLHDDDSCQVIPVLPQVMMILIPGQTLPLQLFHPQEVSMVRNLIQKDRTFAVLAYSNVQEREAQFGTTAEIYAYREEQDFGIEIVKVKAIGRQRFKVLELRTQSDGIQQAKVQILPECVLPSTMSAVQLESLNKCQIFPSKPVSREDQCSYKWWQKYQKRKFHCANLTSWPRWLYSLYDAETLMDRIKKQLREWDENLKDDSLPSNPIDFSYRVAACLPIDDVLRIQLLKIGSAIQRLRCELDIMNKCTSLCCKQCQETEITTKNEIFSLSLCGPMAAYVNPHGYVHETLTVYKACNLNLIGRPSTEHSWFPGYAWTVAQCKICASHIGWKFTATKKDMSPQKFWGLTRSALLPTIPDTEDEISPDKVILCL
Chain of UniProt Q9UKS7 (whole entry, looked up): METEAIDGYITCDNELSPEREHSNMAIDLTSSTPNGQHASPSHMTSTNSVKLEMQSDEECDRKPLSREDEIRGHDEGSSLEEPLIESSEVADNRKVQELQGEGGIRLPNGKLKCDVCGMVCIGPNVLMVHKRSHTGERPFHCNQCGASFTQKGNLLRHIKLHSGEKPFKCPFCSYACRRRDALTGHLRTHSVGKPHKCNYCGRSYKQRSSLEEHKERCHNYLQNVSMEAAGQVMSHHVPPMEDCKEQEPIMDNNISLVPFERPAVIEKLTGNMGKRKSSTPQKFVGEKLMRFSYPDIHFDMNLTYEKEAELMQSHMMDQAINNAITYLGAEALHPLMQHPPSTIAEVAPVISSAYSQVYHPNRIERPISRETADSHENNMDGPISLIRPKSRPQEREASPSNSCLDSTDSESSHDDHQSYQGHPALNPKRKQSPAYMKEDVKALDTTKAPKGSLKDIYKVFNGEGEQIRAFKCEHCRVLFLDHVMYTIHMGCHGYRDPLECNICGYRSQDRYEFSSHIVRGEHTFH
O=C1CCC(N2Cc3c(ccc4c3OCCC43CCN(Cc4ccccc4)CC3)C2=O)C(=O)N1 (stereo not shown): 65%
O=C1CCC(N2Cc3c(ccc4c3OCC43CCC(Cc4ccccc4)CC3)C2=O)C(=O)N1 (stereo not shown): 93.3%
O=C1CCC(N2Cc3c(ccc4c3OCC43CCC(Oc4ccccc4)CC3)C2=O)C(=O)N1 (stereo not shown): 75.6%

Set 2 — SMILES: CCCCc1c(-c2ccc(OC)cc2)[nH]c2nccnc12; read-out: enzyme activity; mode: inhibitor; concentration: 0.5 µM; reference: control; endpoint: remaining activity
MAP4K2 (Homo sapiens, UniProt Q12851): 65.1%
LYN (Homo sapiens, UniProt P07948): 85.5%
EPHA5 (Homo sapiens, UniProt P54756): 91.6%
BTK (Homo sapiens, UniProt Q06187): 64.7%
CHEK1 (Homo sapiens, UniProt O14757): 93.1%
MAP3K10 (Homo sapiens, UniProt Q02779): 82.7%
MAP2K6 (Homo sapiens, UniProt P52564): 96%
CSNK1A1 (Homo sapiens, UniProt P48729): 92.9%
KIT (Homo sapiens, UniProt P10721): 82.9%
Cyclin-dependent kinase 9, with cyclin T1 (CDK9, Homo sapiens, UniProt P50750): 55.2%
MAPK12 (Homo sapiens, UniProt P53778): 102%
CSNK2A1 (Homo sapiens, UniProt P68400): 97.8%
WNK2 (Homo sapiens, UniProt Q9Y3S1): 112%
PRKCI (Homo sapiens, UniProt P41743): 72.8%
AKT3 (Homo sapiens, UniProt Q9Y243): 102%
PRKCD (Homo sapiens, UniProt Q05655): 92.8%
IRAK4 (Homo sapiens, UniProt Q9NWZ3): 163%
PRKG1 (Homo sapiens, UniProt Q13976): 92.7%
LRRK2 (Homo sapiens, UniProt Q5S007): 83%
NEK4 (Homo sapiens, UniProt P51957): 81.3%
MAPK13 (Homo sapiens, UniProt O15264): 99.1%
MKNK2 (Homo sapiens, UniProt Q9HBH9): 99.3%

Set 3 — technique: competition with immobilised ligand; concentration: 1 µM; endpoint: remaining binding
SMILES: CCCCN(CCCC)C(=O)CN1C[C@H](c2cc(OC)c3c(c2)OCO3)[C@@H](C(=O)O)[C@@H]1CC(C)(C)CCC
PIK3CB (Homo sapiens, UniProt P42338); cell-free assay: 56.9%
EPHA4 (Homo sapiens, UniProt P54764); cell-free assay: 100%
ROCK2 (Homo sapiens, UniProt O75116); cell-free assay: 85.2%
NLK (Homo sapiens, UniProt Q9UBE8); cell-free assay: 100%
Tyrosine-protein kinase ABL1, non-phosphorylated (ABL1, Homo sapiens, UniProt P00519, F317L); cell-free assay: 100%
Insulin receptor (INSR, Homo sapiens, UniProt P06213); cell-free assay: 75.8%
HUNK (Homo sapiens, UniProt P57058); cell-free assay: 100%
TESK1 (Homo sapiens, UniProt Q15569); cell-free assay: 100%
PI4KB (Homo sapiens, UniProt Q9UBF8); cell-free assay: 80.5%
TNK2 (Homo sapiens, UniProt Q07912); cell-free assay: 100%
EPHA7 (Homo sapiens, UniProt Q15375); cell-free assay: 100%
BMPR1A (Homo sapiens, UniProt P36894); binding: 86.9%
Tyrosine-protein kinase JAK1, JH2 (JAK1, Homo sapiens, UniProt P23458); cell-free assay: 84.7%
LRRK2 (Homo sapiens, UniProt Q5S007, G2019S); cell-free assay: 100%
CSNK1G3 (Homo sapiens, UniProt Q9Y6M4); cell-free assay: 100%
PRKCE (Homo sapiens, UniProt Q02156); cell-free assay: 100%
RIPK1 (Homo sapiens, UniProt Q13546); cell-free assay: 100%

Set 4 — organism: Sarcocystis neurona; read-out: parasite growth; concentration: 10 µM; time: 96 h; notes: first screen; reference: untreated; endpoint: log2 fold change
CNS(=O)(=O)Cc1ccc2[nH]cc(CCN(C)C)c2c1: 0.0093
CCCc1nc2c(C)cc(-c3nc4ccccc4n3C)cc2n1Cc1ccc(-c2ccccc2C(=O)O)cc1: -0.0662
CN(C)CCCN1c2ccccc2CCc2ccc(Cl)cc21: -0.3
O=S(=O)(O)CCS: 0.1
Clc1ccc(COC(Cn2ccnc2)c2ccc(Cl)cc2Cl)c(Cl)c1 (stereo not shown): -1.1
Nc1nc(Cl)nc2c1ncn2[C@H]1C[C@H](O)[C@@H](CO)O1: 0.09
COc1ccc2c(c1)c(CC(=O)O)c(C)n2C(=O)c1ccc(Cl)cc1: 0.25
COc1cc2c(cc1OC)C(=O)C(CC1CCN(Cc3ccccc3)CC1)C2 (stereo not shown): 0.11
NC12CC3CC(CC(C3)C1)C2: 0.2
CC(=O)OCC(=O)[C@@]1(O)CC[C@H]2[C@@H]3CCC4=CC(=O)CC[C@]4(C)[C@H]3C(=O)C[C@@]21C: -0.19
C[C@@H](O)[C@H]1C(=O)N2C(C(=O)O)=C(S[C@@H]3CN[C@H](C(=O)N(C)C)C3)[C@H](C)[C@H]12: -0.28
COc1cc(C)nc(-n2nc(C)cc2OC)n1: -0.1
CNC(=C[N+](=O)[O-])NCCSCc1ccc(CN(C)C)o1: 0.31

Some of these lines once more (set 2):
CSNK1A1 (Homo sapiens, UniProt P48729): 92.9%
KIT (Homo sapiens, UniProt P10721): 82.9%
Cyclin-dependent kinase 9, with cyclin T1 (CDK9, Homo sapiens, UniProt P50750): 55.2%
MAPK12 (Homo sapiens, UniProt P53778): 102%
CSNK2A1 (Homo sapiens, UniProt P68400): 97.8%
WNK2 (Homo sapiens, UniProt Q9Y3S1): 112%
PRKCI (Homo sapiens, UniProt P41743): 72.8%
AKT3 (Homo sapiens, UniProt Q9Y243): 102%
